Measured values collected from several papers.
Every numbered part comes from another study and shows a few of its results, in no order.

Set 1
Target: RING finger protein unkempt homolog, zinc fingers 1-6, GST-SBP tag (UNK, Homo sapiens, UniProt Q9C0B0, residues 30-357)
Method: RNA Bind-n-Seq
Molecule type: RNA
Matrix: in vitro
Concentration: not given
Notes: RNA with constant flanks, human and mouse sites, ends assumed
Reference: input RNA pool
Direction: higher = stronger binding
Shared flanks, not repeated: GGGAGUUCUACAGUCCGACGAUC … CAACAGAGGAUUGAGCAUCA
Construct (chain): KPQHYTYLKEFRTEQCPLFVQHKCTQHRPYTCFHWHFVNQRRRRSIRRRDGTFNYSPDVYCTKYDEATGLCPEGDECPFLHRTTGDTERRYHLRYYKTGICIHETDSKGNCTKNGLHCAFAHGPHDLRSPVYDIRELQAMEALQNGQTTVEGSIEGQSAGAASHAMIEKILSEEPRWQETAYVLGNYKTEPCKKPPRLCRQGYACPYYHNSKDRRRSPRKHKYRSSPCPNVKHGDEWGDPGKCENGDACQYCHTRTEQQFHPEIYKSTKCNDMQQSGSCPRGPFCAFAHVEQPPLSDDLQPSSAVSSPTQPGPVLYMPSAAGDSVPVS
| Oligonucleotide | bound/input enrichment [ratio] |
| --- | --- |
| GUGGUACAUAUUUGUCUUUUUCUUUAAAUUGUUACCUUCUGCAGAAAACAGUUUCUACUCAGUUUCAUCUAACAAUCCAGUAUUCCUGAACUUUUUGAAAUUGGUGACAAAUUUUUAUAU | 0.46 |
| UUCCUGUCGAGAUCCGGUAGCGCAAGAUGCAGAUCUGAGUCAGACAUGGAGAAUGAACGGAAUUCCAAUACCUCCAAGCAGAGAUACUCGGGGAAGGUCCACCUCUGUGUUGCCCGCUAU | 0.0992 |
| AAAUUGUGCAGCUAUUUUAAAAGUUGUAUAUAUAAUGUGUGUAAAAACUGUAUAAAAAGGGGGGGGGGACAAAGGCAUUGCUUUGUUCUACUUCAAUUUCUUAAAAAUCACUACAUGGUA | 0.224 |
| UUCUGGGGAUAUAAUUCAGGUUGAUGAAAAAACUGUAGGAGAGCCUGGUUGGCUUUAUGGUAGUUUUCAGGGAAAGUUUGGCUGGUUCCCGUGCAACUAUGUAGAAAAAGUGCUGUCAAG | 0.548 |
| UUUCCUGUACCAAGCACCCAGCUCUCCUCUUGUUCUGAAAGGGAUUUCACAUCUUCAGCGUAGCUUCAGUACAUCAUCGGAGGAGUCUGCUGUCCCUAACACAGAGGGAGACCUCGCUUU | 0.141 |
| CUGAAGCCAGCCAAUGUCUUCCUGGACAGCAAACACAAUGUCAAGCUGGGGGACUUUGGACUAGCUAGAAUAUUAAAUCACGACACGAGUUUUGCAAAAACGUUUGUUGGCACACCCUAU | 1.12 |
| AAAAAGGACAAGAAGACCAAAAAGACGUUCUUUGAAGAGCUGGCAGUAGAGGACAAACAAGCUGGGGAAGAGGAAAAAUUGCAGAAGGAGAAGGAGCAGCAACAGCAACAGCAGCAACAG | 0.459 |
| UGCUUCCAAACACUGACAGGGAUCAAGUUUGUGGUCCUGGCAGACCCUAGGCAAGCUGGAAUAGAUUCUCUUCUCCGAAAAAUUUAUGAAAUUUACUCAGACUUUGCCCUCAAGAAUCCA | 0.632 |
| GUUACCAAAAUCACUCUAGAAUCUUUUCUUGCCUGGAAGAAAAGGAAAAGACAAGAAAAGAUUGAUAAACUUGAACAAGAUAUGGAAAGAAGGAAAGCUGACUUCAAAGCAGGGAAAGCA | 0.375 |
| ACCCGCUACACCCAGGGAACAGGUGGUGAUGAGGUUGAUGAUUCAGUGAGUGUAAAUGACAUAGAUUUAAGCCUGUACAUCCCAAGAGAUGUAGAUGAAACAGGUAUUACUGUAGCCAGU | 1.5 |
| UCUUUAAGAAUCUUUGUUUGGCUGUUACUACUUUAUUUCAUGCAAGUUAUAGCAAUUGUCUUAUAUUUGAUGAUGCCUAUUGUGAACAUAAGUGAAGUACUUGGACCCUUGUGCCUUAUG | 0.327 |

Set 2
Target: RNA binding protein fox-1 homolog 2, RRM domain, GST-SBP tag (RBFOX2, Homo sapiens, UniProt O43251-10, residues 100-194)
Method: RNA Bind-n-Seq
Molecule type: RNA
Matrix: in vitro
Concentration: 365 nM
Notes: natural RNA segment, single round, ends assumed
Reference: no-protein control
Direction: higher = stronger binding
Shared flanks, not repeated: GGGAGUUCUACAGUCCGACGAUC … UGGAAUUCUCGGGUGCCAA
Construct (chain): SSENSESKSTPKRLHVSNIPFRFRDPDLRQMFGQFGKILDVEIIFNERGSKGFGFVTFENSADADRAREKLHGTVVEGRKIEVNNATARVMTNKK
| Oligonucleotide | RBNS enrichment (R) |
| --- | --- |
| AUUAUUAUUAUUAUUUCCCCCUCCGUGCUCCCCACUUCUCUUGGCUCGCCCCCCCCCAAGUUGCCAGUGUUUCUGAAUGUCCUCGUGUCUGUGGUUGCGCUCCUUUCCCC | 0.845 |
| ACGGGGGCCGCGUGGUGCCAUCCCCAGGGGGCAUGACCAGAUGCGUCCCAAGAUGUUGAUUUUUACUGUGUUUUAUAAAAUAGAGUGUAGUUUACAGAAAAAGACUUUAA | 0.526 |
| UCCGGCAGCAGCCUUCUCUGGAGGACUGAUACACAGAAGGAAACGAAGGCGCUUGCUGUGGCCGCAGACCGUUCUCCAGGACUCUUUUUUUACCUUGAGCACUUGCCUCC | 0.548 |
| AAGGAAAAAUCUGAGGAAACCCUUAUAUUUUCCAACAGGGUUCCUCUGUGUAGCUUUGCUUAUCCUGGAACUCGAUUUGUUGACCAGGCUGGCCUUGAAUUCUCAAAAAU | 0.354 |
| CCAAGUCCUAGGAAAUAAUGCUUGUAAUAAACUUAACUGUGUUACAUCAGUAGGUAAAAUACAUAAUGUUACAUAGUGUAAUAUGAUAUGAUGUGAUUAAAUUAUAGUUC | 0.373 |
| UGUUUCCAGCUCGUCCACAAGCUCAUCGAUUUUCUUUAGUAGAUUACCGGUGUAAAUACCCAGUGUGCUUAUGAGUCAGUUAGUAGACGUCUUCAUUCAUUGGAGUAACU | 0.243 |
| UUCUGCGCUGACUGUGACAUUGGAACGUGGCCUUCCUGUCACCCCCUCCGUGCCACGCACUGAAGGCCACCCCCACCCACCUGGGAAACUAAGAACUGGAUAUUUUGCCU | 0.883 |
| AUUUUAAAUAAGACUAAGUAUAGGCAUUGUACCUGACAUUGCUACGUUUCUACCAGUGUUUCAAUUUAAAGUGCUAGUGUUUAAAAACAUUUUCAAGGGAUAAGGCCUUC | 0.322 |
| AGUAAUGCAUAAACUGUCAGAAUCGGGACCUUAUCGUUGAGGUGAAAAGAACCAAGGCCCGUAGGAACAAGGUGCUAUGAAUCUGAAACCAAGAGAAACCUCAGUUUGGC | 0.772 |
| GCUUAUUCUUGACAUGAGUGCAUUAGUAAUGACUCUUAUGUACUCAUGCAUGGAUCUUUAUGCAAUUUUUUUCCACUACCCAAGGUCUACCUUAGAUACUAGUUGUCUGA | 0.308 |
| CUAAAGGAUUUUUCUACCUUGAGAUCUCCCGAGAAAUGAAAACUCAGGCAGUUUAGUCCAUAGUAGUACUAUUUUGAUGAUAUUUUCCAUUAACAAAAUGUAAUUUCAGA | 0.323 |
| GAUCUGCUGUAGCCAGUGCAGACCUCACUGUCGUGUCCAUGCCACCCCCGGCAUGGCUCCAGGUGGCCUGGUGACUCCAUGAUGGACGAUCUUGCUCCCAGGACCUGCCU | 0.461 |

Set 3
Target: Histone acetyltransferase KAT6A, winged helix 1, GST fusion (KAT6A, Homo sapiens, UniProt Q92794, residues 1-85)
Method: protein binding microarray
Molecule type: double-stranded DNA, one strand shown
Matrix: in vitro
Concentration: not given
Notes: 8-mer, flanks averaged, mean of 2 arrays, mostly near background
Reference: not given
Direction: higher = stronger binding
Target sequence (chain): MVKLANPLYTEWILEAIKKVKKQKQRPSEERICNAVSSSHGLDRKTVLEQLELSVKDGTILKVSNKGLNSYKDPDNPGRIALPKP
| Oligonucleotide | E-score |
| --- | --- |
| CATAAATG | -0.107 |
| ACGAAATG | -0.219 |
| ATGTTTTC | -0.016 |
| AGAGCGTA | 0.271 |
| AGCCGGGC | 0.264 |
| AAACTCCA | -0.117 |
| GAGCAAAC | -0.246 |
| CGCATCCG | 0.353 |
| GAACTGCC | -0.0513 |
| AGTACAAA | -0.205 |
| AACATCCT | 0.0243 |
| AAATCCAT | -0.197 |
| CCTAGTGA | -0.157 |
| CTTCGTTA | 0.0384 |
| CAACGTAC | -0.137 |
| ATCTTCAC | -0.116 |
| TCAAGTAA | -0.142 |
| AATGTTCG | -0.0128 |
| ACACTGAT | -0.221 |
| GTAGAGGA | -0.249 |
| AACTGTCG | 0.0381 |
| AAGTACGT | -0.112 |
| AAGTTCCC | 0.158 |
| AAACTCCC | 0.0749 |
| GTAGCCTA | -0.0601 |

Set 4
Target: Ras GTPase-activating protein-binding protein 1, full length (G3BP1, Homo sapiens, UniProt Q13283)
UniProt Q13283, sequence (whole entry, looked up): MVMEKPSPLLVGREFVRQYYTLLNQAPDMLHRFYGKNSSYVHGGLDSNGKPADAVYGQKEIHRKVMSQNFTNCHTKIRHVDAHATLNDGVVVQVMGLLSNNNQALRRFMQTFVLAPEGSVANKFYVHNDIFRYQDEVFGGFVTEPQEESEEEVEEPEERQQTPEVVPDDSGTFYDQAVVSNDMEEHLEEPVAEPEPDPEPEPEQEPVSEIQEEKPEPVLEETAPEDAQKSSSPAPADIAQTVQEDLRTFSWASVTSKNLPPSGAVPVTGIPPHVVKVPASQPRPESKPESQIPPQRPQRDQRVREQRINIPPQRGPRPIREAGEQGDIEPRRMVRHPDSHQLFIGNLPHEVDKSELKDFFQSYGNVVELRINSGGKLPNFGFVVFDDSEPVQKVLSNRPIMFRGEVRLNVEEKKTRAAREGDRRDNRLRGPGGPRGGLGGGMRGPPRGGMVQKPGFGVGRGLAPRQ
Method: RNA Bind-n-Seq
Molecule type: RNA
Matrix: in vitro
Concentration: 200 nM
Notes: whole 134-nt RNA, ends assumed
With: 150 mM KCl
Reference: input library
Direction: higher = stronger binding
Shared flanks, not repeated: GGGAGUUCUACAGUCCGACGAUC … UGGAAUUCUCGGGUGUCAAGG
| Oligonucleotide | log2 enrichment |
| --- | --- |
| GAAAUCCACAGGAAAGUGAUGUCACAAAACUUCACCAACUGCCACACCAAGAUUCGCCAUGUUGAUGCUCAUGCCACGCUAAAUGAUGGU | 0.236 |
| UCAAGUCCUGUGCUACACAUCGUAUGUACCGAAUCGGGCCGGGGCCGGGGCCGGAAAGUAUUAUGUUACGCCGUUCGGAUCUGCACUUCC | -0.972 |
| CUGUGCUACACAUCGUAUGUACCGAAUCGGGGCCCCCCCGGCCCCCCCGGGCCCCCCCGGGGAAAGUAUUAUGUUACGCCGUUCGGAUCU | -1.02 |
| AGUCCUGUGCUACACAUCGUAUGUACCGAAUCGGAAAAAGGAAAAAGGGGAAAAAGGGAAAGUAUUAUGUUACGCCGUUCGGAUCUGCAC | -0.973 |
| CACAGACAACACGCACCCACACAGACACAGAGGGAAGGGGUUGGGAUGGGGACAGGGUGCACAGCAGGGCGGUGUAGGACCCCAGCCCCU | 1.86 |
| UAACUUUAGAGGAGGAUCUGAUGGAUAUGGCAGUGGACGUGGAUUUGGGGAUGGCUAUAAUGGGUAUGGAGGAGCACCUGGAGGUGGCAA | -0.0387 |
| UGGGAGGUGGAUUUUGUUUAUUUUUUUAGCUCAUUUCCAGGGGUGGGAAUUUUUUUUUAAUAUGUGUCAUGAAUUAAGUUGUUUUUGAAA | 0.321 |
| UUCCAGGCUCAAGCACGGACAUCAGUGAGGACUGGGAGAAAGACUUUGACUUGGACAUGACUGAAGAGGAGGUGCAGAUGGCACUUUCCA | 0.018 |
| CUCAAGUCCUGUGCUACACAUCGUAUGUACCGAAUCGGGGUGGGUGGGUGGGGAAAGUAUUAUGUUACGCCGUUCGGAUCUGCACUUCCA | 0.29 |
| CAAGUCCUGUGCUACACAUCGUAUGUACCGAAUCGGGAAAGGGAAAGGGAAAGGGAAAGUAUUAUGUUACGCCGUUCGGAUCUGCACUUC | 0.424 |
| UCAAGUCCUGUGCUACACAUCGUAUGUACCGAAUCGGGGUUUGGGUUUGGUUUGGAAAGUAUUAUGUUACGCCGUUCGGAUCUGCACUUC | -0.284 |
| UGGCCCUGGUGGCAUGCGGGGAGGAAGAGGUGGCCUCAUGGAUCGUGGUGGUCCCGGCGGAAUGUUCAGAGGUGGCCGUGGUGGAGACAG | 0.0161 |
| GUCCUGUGCUACACAUCGUAUGUACCGAAUCAAACCCCCCCAAACCCAAAUUUUUAAAAAAGUAUUAUGUUACGCCGUUCGGAUCUGCAC | -0.114 |
| UAACUUUAGAGGAGGAUCUGAUGGAUAUGGCAGUGGACGUGGAUUUGGGUAUGGCUAUAAUGGGUAUGGAGGAGGACCUGGAGGUGGCAA | 0.113 |

A few entries again (set 3):
| Oligonucleotide | E-score |
| --- | --- |
| AGAGCGTA | 0.271 |
| AGCCGGGC | 0.264 |
| AAACTCCA | -0.117 |
| GAGCAAAC | -0.246 |
| CGCATCCG | 0.353 |
| GAACTGCC | -0.0513 |
| AGTACAAA | -0.205 |
